Published values of several laboratories.
A part holds a random share of what one study measured. Changes are numbered by the printed parent chain.

Set 1
Target: Fragile X messenger ribonucleoprotein 1, C-terminal low-complexity region (Fmr1, Mus musculus, UniProt P35922)
Method: RNA Bind-n-Seq
Form: RNA
Sample: in vitro
Tested at: 200 nM
Notes: whole 134-nt RNA, ends assumed
Together with: 150 mM KCl
Reference: input library
Reading: higher = stronger binding
`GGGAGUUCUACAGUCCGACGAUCCUGUGCUACACAUCGUAUGUACCGAAUCGGGGUUUUUGGGGAAAAAAAGGGGUUUUUGGGGAAAGUAUUAUGUUACGCCGUUCGGAUCUGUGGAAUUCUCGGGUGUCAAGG` gave a log2 enrichment of 0.0272.
The log2 enrichment of `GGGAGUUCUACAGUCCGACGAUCGCAGGAAGUAAAAACAAAUGGAAAUGCUUCGGAUAGUGGCAGGGGUGGGGGUUGCUAAGGAAAGGGUGGGAUGGGAGUGGGUAAGGAGUUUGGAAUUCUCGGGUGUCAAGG` is reported as -0.127.
For `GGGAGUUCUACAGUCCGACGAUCUAACUUUAGAGGAGGAUCUAAUGGAUAUGGCAGUGGACGUGGAUUUGGGGAUGGCUAUAAUGGGUAUGGAGGAGGACCUGGAGGUGGCAAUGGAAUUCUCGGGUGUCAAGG`, the log2 enrichment was 0.321.
With `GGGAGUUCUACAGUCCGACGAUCCACAGACAACACGCACCCACACAGACACAGAGGGAAGGGGUUGGGAUGGGGUCAGGGUGCACAGCAGGGCGGGGUAGGACCCCAGCCCCUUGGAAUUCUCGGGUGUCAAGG` the log2 enrichment was 1.47.
For `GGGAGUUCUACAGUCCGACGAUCCAAGUCCUGUGCUACACAUCGUAUGUACCGAAUCGGGAAAGGGAAAGGGGAAAGGAAAGUAUUAUGUUACGCCGUUCGGAUCUGCACUUCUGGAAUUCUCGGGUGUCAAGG`, the log2 enrichment was -0.168.
`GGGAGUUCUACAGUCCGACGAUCACCAUGCAGGUGGGCAUCUUUGGGAAGUGGGGCAAGGGGGGGAUAGGGAGGGGGGUAACACUUAAAGAACAGGUGGUCCCAGGUCGUUUCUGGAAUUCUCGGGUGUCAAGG` has a log2 enrichment of 0.644.
`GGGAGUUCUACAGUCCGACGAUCAGUCCUGUGCUACACAUCGUAUGUACCGAAUCAAAUUUAAAUUUUUUUAAAUUUAAAAAAGUAUUAUGUUACGCCGUUCGGAUCUGCACUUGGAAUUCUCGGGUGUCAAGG` has a log2 enrichment of -1.6.
`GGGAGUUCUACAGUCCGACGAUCAAGUCCUGUGCUACACAUCGUAUGUACCGAAUCGGAAAAGGAAAAGGGAAAAGGGGAAAGUAUUAUGUUACGCCGUUCGGAUCUGCACUUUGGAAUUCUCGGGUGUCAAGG` has a log2 enrichment of -0.506.
For `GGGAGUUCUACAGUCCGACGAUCUGGGAGGUGGAUUUUGUUUAUUUUUAUAGCUCAUUUCCAGGGGUGGGAAUUUUUUUUUAAUAUGUGUCAUGAAUAAAGUUGUUUUUGAAAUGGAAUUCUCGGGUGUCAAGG`, the log2 enrichment was 0.274.
The log2 enrichment of `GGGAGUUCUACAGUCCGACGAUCCCUCAAGUCCUGUGCUACACAUCGUAUGUACCGAAUCGGUUUGGAGGAAAGGAAAGUAUUAUGUUACGCCGUUCGGAUCUGCACUUCCAGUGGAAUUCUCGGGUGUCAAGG` is reported as 0.226.
For `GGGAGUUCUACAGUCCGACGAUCUCCUGUGCUACACAUCGUAUGUACCGAAUCGGGGAAAAAAAGGGGAGGGGAAAAAGGGGAAAGUAUUAUGUUACGCCGUUCGGAUCUGCAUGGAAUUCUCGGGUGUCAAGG`, the log2 enrichment was 0.408.
With `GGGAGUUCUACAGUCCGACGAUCGCAGGAAGUAAAAACUAAUGGAAAUGCUUCGGAUAGUGGCAGGGGUGGGGGUUGCUAAGGAAAGGGUGGGAUGGGAGUGGGUAAAGAGUUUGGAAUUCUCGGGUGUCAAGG` the log2 enrichment was 0.235.
`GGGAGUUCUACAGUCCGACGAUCUGGGACGUGGAUUUUGUUUAUUUUUUUAGCUCAUUUCCAGGGGUGGGAAUUUUUUUUUAAUAUGUGUCAUGAAUAAAGUUGUUUUUGAAAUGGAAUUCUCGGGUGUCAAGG` gave a log2 enrichment of -0.46.
With `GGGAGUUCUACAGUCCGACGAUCCUGUGCUACACAUCGUAUGUACCGAAUCGGGGUUUUUUUGGGUUUUUUUGGGGUUUUUUUGGAAAGUAUUAUGUUACGCCGUUCGGAUCUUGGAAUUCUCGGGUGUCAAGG` the log2 enrichment was -0.0698.

Set 2
Target: CCNE2, cyclin fold, Cln2 fusion (human)
Method: yeast growth competition, sequencing
Sample: yeast
Notes: strong parent motif
Reference: not given
Reading: higher = stronger binding
Starting sequence: GMNC docking peptide (human); KNAKRNLSSEFAN; partner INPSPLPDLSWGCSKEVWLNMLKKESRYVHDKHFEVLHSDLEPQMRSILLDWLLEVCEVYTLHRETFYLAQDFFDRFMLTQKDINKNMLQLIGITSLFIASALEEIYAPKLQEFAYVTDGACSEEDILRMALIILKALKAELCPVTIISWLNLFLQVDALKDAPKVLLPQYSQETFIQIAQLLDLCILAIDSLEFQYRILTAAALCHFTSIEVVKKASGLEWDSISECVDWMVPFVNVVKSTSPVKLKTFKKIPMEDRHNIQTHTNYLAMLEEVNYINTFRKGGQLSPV
`L7R` — result for “normalised enrichment score”: 0.409.
`F11K` — result for “normalised enrichment score”: 0.161.
For `A3N`, “normalised enrichment score” read -0.00851.
For `A3G`, “normalised enrichment score” read 0.736.
For `R5M`, “normalised enrichment score” read 0.237.
Under “normalised enrichment score”, `N6L` is recorded as -0.18.
Under “normalised enrichment score”, `R5D` is recorded as -0.00385.
`L7Y`: “normalised enrichment score” -0.0622.
For `N6P`, “normalised enrichment score” read 0.153.

Further values, each from its own experiment
`NDUFB3 (Homo sapiens, UniProt O43676)` — result for cross-linked residues: “K39 to K33” (COX7A2 (Homo sapiens, UniProt P14406); cross-linking MS; cell fractions; together with: DSSO).
With `PhoQ, residues 284 288 289 292 302 303 WVSSAF` the fold induction was 12.7 (PhoP, residues 12 14 15 18 19 QYCSL (Escherichia coli, UniProt P23836); Sort-seq, item: YFP reporter; E. coli; PhoQ-PhoP variant library, together with: 10 µM Mg2+; reference: high Mg2+ state, higher = stronger signaling).
Under cross-linked residues, `ENO1 (Homo sapiens, UniProt P06733)` is recorded as “K54 to S181” (SPINDOC (Homo sapiens, UniProt Q9BUA3); cross-linking MS; cell fractions; together with: DSSO).
`GPAT3 (Homo sapiens, UniProt Q53EU6)`: cross-linked residues “K81 to K188” (CHP1 (Homo sapiens, UniProt Q99653); cross-linking MS; cell fractions; together with: DSSO).
`SDHB (Homo sapiens, UniProt P21912)` — result for interaction screen: “cross-linked” (SDHA (Homo sapiens, UniProt P31040); cross-linking MS; hits only).

Some of these lines once more (further values, each from its own experiment):
`NDUFB3 (Homo sapiens, UniProt O43676)` — result for cross-linked residues: “K39 to K33” (COX7A2 (Homo sapiens, UniProt P14406); cross-linking MS; cell fractions; together with: DSSO).
With `PhoQ, residues 284 288 289 292 302 303 WVSSAF` the fold induction was 12.7 (PhoP, residues 12 14 15 18 19 QYCSL (Escherichia coli, UniProt P23836); Sort-seq, item: YFP reporter; E. coli; PhoQ-PhoP variant library, together with: 10 µM Mg2+; reference: high Mg2+ state, higher = stronger signaling).
Under cross-linked residues, `ENO1 (Homo sapiens, UniProt P06733)` is recorded as “K54 to S181” (SPINDOC (Homo sapiens, UniProt Q9BUA3); cross-linking MS; cell fractions; together with: DSSO).
